Measured values gathered from unrelated publications.
A part holds a random share of what one study measured. Substitutions count along the parent as printed.
Chain of UniProt Q96PY6 (whole entry, looked up): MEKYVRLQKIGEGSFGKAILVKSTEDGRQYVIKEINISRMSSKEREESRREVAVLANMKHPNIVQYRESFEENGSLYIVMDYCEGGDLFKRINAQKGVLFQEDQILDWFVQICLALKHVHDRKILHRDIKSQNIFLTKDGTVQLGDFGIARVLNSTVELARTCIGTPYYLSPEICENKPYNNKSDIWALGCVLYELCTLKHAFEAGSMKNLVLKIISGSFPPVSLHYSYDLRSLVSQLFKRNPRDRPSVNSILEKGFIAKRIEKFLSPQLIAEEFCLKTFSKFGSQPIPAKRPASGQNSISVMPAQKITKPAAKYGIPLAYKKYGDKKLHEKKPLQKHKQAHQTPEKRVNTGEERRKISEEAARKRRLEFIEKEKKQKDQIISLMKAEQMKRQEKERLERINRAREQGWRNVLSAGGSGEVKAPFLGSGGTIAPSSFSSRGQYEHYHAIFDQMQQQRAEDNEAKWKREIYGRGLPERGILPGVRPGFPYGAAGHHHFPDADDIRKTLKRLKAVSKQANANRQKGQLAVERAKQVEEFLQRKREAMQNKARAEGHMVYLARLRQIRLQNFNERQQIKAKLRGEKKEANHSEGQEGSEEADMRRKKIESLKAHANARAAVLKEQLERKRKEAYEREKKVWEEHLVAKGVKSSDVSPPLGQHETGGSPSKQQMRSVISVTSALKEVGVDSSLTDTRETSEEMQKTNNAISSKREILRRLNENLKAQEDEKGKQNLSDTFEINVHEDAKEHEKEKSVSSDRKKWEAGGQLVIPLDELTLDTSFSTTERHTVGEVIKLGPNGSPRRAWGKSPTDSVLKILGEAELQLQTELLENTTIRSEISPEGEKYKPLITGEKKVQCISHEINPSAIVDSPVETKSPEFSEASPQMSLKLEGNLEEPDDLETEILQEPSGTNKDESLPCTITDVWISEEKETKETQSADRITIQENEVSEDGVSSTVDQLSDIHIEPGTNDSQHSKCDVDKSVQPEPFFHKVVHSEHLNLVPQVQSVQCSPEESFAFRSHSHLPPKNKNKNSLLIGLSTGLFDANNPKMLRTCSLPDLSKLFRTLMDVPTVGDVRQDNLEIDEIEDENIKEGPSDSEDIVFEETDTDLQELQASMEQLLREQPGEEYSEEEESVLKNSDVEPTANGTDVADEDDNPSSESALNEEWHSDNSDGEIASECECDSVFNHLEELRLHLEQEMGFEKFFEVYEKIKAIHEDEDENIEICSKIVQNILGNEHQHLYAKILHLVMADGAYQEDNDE
Chain of UniProt Q9Y6M4 (whole entry, looked up): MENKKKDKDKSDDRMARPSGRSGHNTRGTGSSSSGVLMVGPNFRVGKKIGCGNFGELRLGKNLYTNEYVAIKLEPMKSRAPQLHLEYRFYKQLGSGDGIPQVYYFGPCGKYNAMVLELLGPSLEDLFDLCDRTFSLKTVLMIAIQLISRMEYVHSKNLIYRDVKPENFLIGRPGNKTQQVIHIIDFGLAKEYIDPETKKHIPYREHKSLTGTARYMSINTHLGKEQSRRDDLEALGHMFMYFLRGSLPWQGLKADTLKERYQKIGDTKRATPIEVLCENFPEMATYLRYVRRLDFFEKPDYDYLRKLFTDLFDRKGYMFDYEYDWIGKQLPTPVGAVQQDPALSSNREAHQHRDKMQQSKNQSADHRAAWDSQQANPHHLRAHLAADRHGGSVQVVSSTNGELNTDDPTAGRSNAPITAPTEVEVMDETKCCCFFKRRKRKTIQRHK
Chain of UniProt P42685 (whole entry, looked up): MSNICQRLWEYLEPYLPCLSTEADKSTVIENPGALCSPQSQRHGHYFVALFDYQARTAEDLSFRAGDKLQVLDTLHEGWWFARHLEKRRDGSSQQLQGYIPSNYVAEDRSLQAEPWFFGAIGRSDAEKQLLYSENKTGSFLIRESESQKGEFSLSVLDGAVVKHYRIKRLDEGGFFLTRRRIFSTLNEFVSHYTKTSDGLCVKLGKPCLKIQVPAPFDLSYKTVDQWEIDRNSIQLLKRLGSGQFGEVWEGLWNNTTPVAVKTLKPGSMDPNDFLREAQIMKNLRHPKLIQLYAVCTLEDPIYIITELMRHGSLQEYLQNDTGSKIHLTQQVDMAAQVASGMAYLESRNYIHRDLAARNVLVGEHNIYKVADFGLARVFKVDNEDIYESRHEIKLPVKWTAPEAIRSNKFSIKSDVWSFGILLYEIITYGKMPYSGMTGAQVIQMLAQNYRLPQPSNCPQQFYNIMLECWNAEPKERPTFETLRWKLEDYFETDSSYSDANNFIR
Chain of UniProt P30291 (whole entry, looked up): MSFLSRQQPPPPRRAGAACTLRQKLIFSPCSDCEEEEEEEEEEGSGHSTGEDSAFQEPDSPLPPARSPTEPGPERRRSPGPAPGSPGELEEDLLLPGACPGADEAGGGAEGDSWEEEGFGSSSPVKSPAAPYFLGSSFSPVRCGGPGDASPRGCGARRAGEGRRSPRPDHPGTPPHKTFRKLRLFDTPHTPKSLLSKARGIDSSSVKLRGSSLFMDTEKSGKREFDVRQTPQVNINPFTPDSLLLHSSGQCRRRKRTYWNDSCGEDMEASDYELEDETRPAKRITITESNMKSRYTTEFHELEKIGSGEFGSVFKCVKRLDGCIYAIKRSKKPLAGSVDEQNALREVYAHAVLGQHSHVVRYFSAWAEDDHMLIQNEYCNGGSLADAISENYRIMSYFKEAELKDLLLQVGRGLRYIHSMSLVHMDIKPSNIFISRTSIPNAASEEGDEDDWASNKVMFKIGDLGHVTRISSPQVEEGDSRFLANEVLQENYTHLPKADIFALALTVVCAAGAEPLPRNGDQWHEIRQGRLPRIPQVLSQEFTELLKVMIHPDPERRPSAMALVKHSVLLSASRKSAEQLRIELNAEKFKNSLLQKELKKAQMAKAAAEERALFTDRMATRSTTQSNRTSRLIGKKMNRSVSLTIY
Chain of UniProt P36896 (whole entry, looked up): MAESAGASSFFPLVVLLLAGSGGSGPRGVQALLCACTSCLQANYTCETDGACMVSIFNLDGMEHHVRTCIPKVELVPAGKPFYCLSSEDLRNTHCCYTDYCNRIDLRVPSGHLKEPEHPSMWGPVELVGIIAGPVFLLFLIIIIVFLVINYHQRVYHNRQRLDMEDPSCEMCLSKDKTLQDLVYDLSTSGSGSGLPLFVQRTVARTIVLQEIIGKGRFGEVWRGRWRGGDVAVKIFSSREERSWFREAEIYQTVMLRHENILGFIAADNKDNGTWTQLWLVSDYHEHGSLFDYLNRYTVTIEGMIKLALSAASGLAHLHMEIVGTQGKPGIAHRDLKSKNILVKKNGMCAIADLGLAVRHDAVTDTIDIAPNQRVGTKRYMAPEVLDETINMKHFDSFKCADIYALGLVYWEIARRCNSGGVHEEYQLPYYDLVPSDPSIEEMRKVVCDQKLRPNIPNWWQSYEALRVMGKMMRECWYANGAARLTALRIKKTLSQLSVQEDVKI
Chain of UniProt P52333 (whole entry, looked up): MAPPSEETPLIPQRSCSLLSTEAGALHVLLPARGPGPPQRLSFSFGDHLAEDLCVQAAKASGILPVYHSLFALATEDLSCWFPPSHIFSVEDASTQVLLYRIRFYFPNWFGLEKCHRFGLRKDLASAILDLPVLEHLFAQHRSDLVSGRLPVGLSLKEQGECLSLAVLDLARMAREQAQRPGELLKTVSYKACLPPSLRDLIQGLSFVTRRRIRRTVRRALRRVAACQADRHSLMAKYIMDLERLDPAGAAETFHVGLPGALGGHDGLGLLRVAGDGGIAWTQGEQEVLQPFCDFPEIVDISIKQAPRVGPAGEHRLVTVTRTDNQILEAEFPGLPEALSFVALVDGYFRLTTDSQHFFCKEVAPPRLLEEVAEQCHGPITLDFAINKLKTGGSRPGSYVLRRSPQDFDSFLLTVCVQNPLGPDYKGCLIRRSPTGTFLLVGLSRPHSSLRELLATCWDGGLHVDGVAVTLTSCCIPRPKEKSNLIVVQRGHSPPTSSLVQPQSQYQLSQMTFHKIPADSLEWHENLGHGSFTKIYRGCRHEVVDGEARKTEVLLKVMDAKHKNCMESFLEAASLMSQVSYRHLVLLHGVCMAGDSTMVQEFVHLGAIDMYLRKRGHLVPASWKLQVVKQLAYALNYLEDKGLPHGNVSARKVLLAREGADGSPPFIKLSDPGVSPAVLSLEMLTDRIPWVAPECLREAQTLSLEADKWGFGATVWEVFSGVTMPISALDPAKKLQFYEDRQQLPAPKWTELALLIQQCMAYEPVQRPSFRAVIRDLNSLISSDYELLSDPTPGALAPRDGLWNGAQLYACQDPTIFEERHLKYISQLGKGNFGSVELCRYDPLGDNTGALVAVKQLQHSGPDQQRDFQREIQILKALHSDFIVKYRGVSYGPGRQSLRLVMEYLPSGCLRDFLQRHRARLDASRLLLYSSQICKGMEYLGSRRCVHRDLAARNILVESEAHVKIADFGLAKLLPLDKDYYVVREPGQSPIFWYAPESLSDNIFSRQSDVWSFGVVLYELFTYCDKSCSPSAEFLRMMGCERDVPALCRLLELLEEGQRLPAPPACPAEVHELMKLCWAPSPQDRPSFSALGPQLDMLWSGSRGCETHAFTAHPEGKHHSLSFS
Chain of UniProt P49841 (whole entry, looked up): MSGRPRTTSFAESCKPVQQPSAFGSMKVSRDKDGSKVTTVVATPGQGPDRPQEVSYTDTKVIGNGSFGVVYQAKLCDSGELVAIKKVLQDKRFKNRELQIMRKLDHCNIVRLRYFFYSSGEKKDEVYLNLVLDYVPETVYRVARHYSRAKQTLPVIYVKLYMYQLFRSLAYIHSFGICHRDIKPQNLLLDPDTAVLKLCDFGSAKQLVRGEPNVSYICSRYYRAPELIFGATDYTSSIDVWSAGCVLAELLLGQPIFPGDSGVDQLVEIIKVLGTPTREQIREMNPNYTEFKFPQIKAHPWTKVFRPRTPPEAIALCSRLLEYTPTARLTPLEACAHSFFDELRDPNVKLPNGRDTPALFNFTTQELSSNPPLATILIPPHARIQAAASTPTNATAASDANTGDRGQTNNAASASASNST

Series 1
Target: Runt-related transcription factor 1, full length (RUNX1, Homo sapiens, UniProt Q01196-8, residues 1-480)
Technique: protein-binding microarray
Molecule type: hairpin DNA
Sample: in vitro
Concentration: not given
Setting: whole hairpin DNA, median over replicate spots
Relative to: not given
Direction: higher = stronger binding
Sequence	median fluorescence [a.u.]
GAGGCCTGGTGCGGTTGGCCTCCTGGCCAACCGCACCAGGCCTCACACTC (5mC at 36)	3330
GAGGCCTGTTGCGGTCGGCCTCCTGGCCGACCGCAACAGGCCTCACACTC (5mC at 16)	4060
GAGGCCTGTTGCGGTTTGCCTCCTGGCAAACCGCAACAGGCCTCACACTC	9480
GAGGCCCGTCGCGGTTGGCCTCCTGGCCAACCGCGACGGGCCTCACACTC (5mC at 7)	2650
GAGGCCCCACCGCAACAGCCTCCTGGCTGTTGCGGTGGGGCCTCACACTC	3460
GAGGCCTCTCGCGGTTGGCCTCCTGGCCAACCGCGAGAGGCCTCACACTC	2440
GAGGCCCGACCGCAACAGCCTCCTGGCTGTTGCGGTCGGGCCTCACACTC (5mC at 7 37)	4560
GAGGCCTGTTGTGGCGGGCCTCCTGGCCCGCCACAACAGGCCTCACACTC (5mC at 29)	1940

Series 2
Target: CEBPA, bZIP domain (human)
Technique: DHFR protein complementation
Sample: yeast
Setting: single substitutions, most at no-binding floor
Relative to: wild-type JUN-FOS pair
Direction: higher = stronger binding
Parent: JUN, bZIP domain (human); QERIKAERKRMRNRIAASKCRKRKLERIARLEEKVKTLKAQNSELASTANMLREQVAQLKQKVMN; partner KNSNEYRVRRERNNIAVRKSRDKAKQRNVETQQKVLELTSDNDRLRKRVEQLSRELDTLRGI
Variant	binding fitness [natural log]
Q41E	-1.41
Q55K	-1.38
R53D	-1.49
Q55Y	-1.41
L38I	-1.48
K34S	-1.46
E32G	-1.44
A49R	-1.41

Series 3
Structure (SMILES): O=C1Nc2ccccc2/C1=C\c1c(Cl)[nH]c2ccccc12
Read-out: enzyme activity
Action: inhibitor
Concentration: 0.5 µM
Relative to: control
target	remaining activity
MERTK (Homo sapiens, UniProt Q12866)	88.2%
RPS6KA2 (Homo sapiens, UniProt Q15349)	81.1%
MST1R (Homo sapiens, UniProt Q04912)	97.5%
EPHA3 (Homo sapiens, UniProt P29320)	95%
MAP2K2 (Homo sapiens, UniProt P36507)	98.7%
JAK3 (Homo sapiens, UniProt P52333)	102%
TEK (Homo sapiens, UniProt Q02763)	97.1%
NEK1 (Homo sapiens, UniProt Q96PY6)	96.7%
FGFR1 (Homo sapiens, UniProt P11362)	92%
LCK (Homo sapiens, UniProt P06239)	95.5%
ACVR1B (Homo sapiens, UniProt P36896)	105%
NEK6 (Homo sapiens, UniProt Q9HC98)	96.5%
TAOK2 (Homo sapiens, UniProt Q9UL54)	104%
TBK1 (Homo sapiens, UniProt Q9UHD2)	95.9%
ULK2 (Homo sapiens, UniProt Q8IYT8)	99.7%
GRK7 (Homo sapiens, UniProt Q8WTQ7)	106%
FGFR3 (Homo sapiens, UniProt P22607)	101%
MAP3K14 (Homo sapiens, UniProt Q99558)	92.6%
GSK3B (Homo sapiens, UniProt P49841)	105%
WEE1 (Homo sapiens, UniProt P30291)	107%
MAPKAPK2 (Homo sapiens, UniProt P49137)	101%
CSNK1G3 (Homo sapiens, UniProt Q9Y6M4)	92.8%
FRK (Homo sapiens, UniProt P42685)	100%
MAPK3 (Homo sapiens, UniProt P27361)	109%
MAP3K5 (Homo sapiens, UniProt Q99683)	107%

Series 4
Target: Prothrombin, mature alpha-thrombin (F2, Homo sapiens, UniProt P00734)
Technique: aptamer microarray, sandwich
Molecule type: DNA with 2'F-ANA
Sample: in vitro
Concentration: 200 nM
Setting: whole 15-mer aptamer, many near background
With: Cy3 exosite-II aptamer, 400 nM
Direction: higher = stronger binding
Sequence: GGTTGGTGTGGTTGG
Modification	mean fluorescence intensity [a.u.]
2'F-ANA at 2 3 5 6 7 8 9 10 11 12 14 15	55.9
2'F-ANA at 1 2 3 5 10 13 14 15	50.2
2'F-ANA at 1 6 7 9 10 11 13 14 15	50.2
2'F-ANA at 1 4 5 7 8 10 11 13	51.1
2'F-ANA at 1 6 7 8 11 15	185
2'F-ANA at 2 3 6 7 8 9 10 12 14 15	261
2'F-ANA at 1 5 6 7 9 10 12 13 14	134
2'F-ANA at 1 2 5 6 8 9 11 12 13 15	67.3

Further values, each from its own experiment
Molecule	target or system	assay	test system	setting	endpoint	value
FIGNL1 (Homo sapiens, UniProt Q6PIW4)	YARS2 (Homo sapiens, UniProt Q9Y2Z4)	cross-linking MS	cell fractions	with: DMTMM	cross-linked residues	K339 to D295
CN(C)CC#Cc1ccc(OCCCc2sc(N3CCc4cccc(C(=O)Nc5nc6ccccc6s5)c4C3)nc2C(=O)O)c(F)c1	primary human hepatocyte spheroids	ATP content	–	1- and 10-fold concentration, 7 days	hepatotoxicity	no effect
SIN3A (Homo sapiens, UniProt Q96ST3)	ING2 (Homo sapiens, UniProt Q9H160)	cross-linking MS	–	hits only	interaction screen	cross-linked
NDUFS7 (Homo sapiens, UniProt O75251)	NDUFAF3 (Homo sapiens, UniProt Q9BU61)	cross-linking MS	cell fractions	with: DMTMM	cross-linked residues	K136 to E53
MTA2 (Homo sapiens, UniProt O94776)	HDAC2 (Homo sapiens, UniProt Q92769)	cross-linking MS	–	hits only	interaction screen	cross-linked

Some of these lines once more (further values, each from its own experiment):
Molecule	target or system	assay	test system	setting	endpoint	value
CN(C)CC#Cc1ccc(OCCCc2sc(N3CCc4cccc(C(=O)Nc5nc6ccccc6s5)c4C3)nc2C(=O)O)c(F)c1	primary human hepatocyte spheroids	ATP content	–	1- and 10-fold concentration, 7 days	hepatotoxicity	no effect
SIN3A (Homo sapiens, UniProt Q96ST3)	ING2 (Homo sapiens, UniProt Q9H160)	cross-linking MS	–	hits only	interaction screen	cross-linked
FIGNL1 (Homo sapiens, UniProt Q6PIW4)	YARS2 (Homo sapiens, UniProt Q9Y2Z4)	cross-linking MS	cell fractions	with: DMTMM	cross-linked residues	K339 to D295
NDUFS7 (Homo sapiens, UniProt O75251)	NDUFAF3 (Homo sapiens, UniProt Q9BU61)	cross-linking MS	cell fractions	with: DMTMM	cross-linked residues	K136 to E53
MTA2 (Homo sapiens, UniProt O94776)	HDAC2 (Homo sapiens, UniProt Q92769)	cross-linking MS	–	hits only	interaction screen	cross-linked
